Measured values collected from several papers.
Each line is one published result; not all experiments were run side by side. “And” joins repeats or separate records; there may be more than shown. ± gives the spread as reported.

Cc1cc(Nc2ccc(NC(=O)c3ccc(Nc4ccnc5ccccc45)cc3)cc2)nc(N)n1  viability (OCI-Ly1; 0.1 µM, 120 h): 88.5%
CCn1cc(-c2cc(Cn3ccnc3)cc3c2CCN([C@H](c2cc(OC)ccn2)C2CC2)C3=O)c(C(F)(F)F)n1  EC50 (G-361; cell growth, inhibitor; 120 h): 0.00403 µM
Cn1cc(-c2ccc(-c3cncc(Cl)c3N3CCC4(CCNC4=O)CC3)cc2)cn1  log2 fold change (COLO 205; gene expression, microarray, refers to: LY9 mRNA; concentration not given, 2 h; baseline: untreated cells): -2.02
Nc1ccn([C@@H]2O[C@H](CO)[C@@H](O)C2(F)F)c(=O)n1  viability (OCI-Ly1; 0.1 µM, 120 h): 1.99%
Cc1nc2cc(C(=O)c3ccc(F)cc3)ccc2[nH]1  viability (sample A patient iPSC-derived NPCs; MTS; 10 µM, 24 h; baseline: vehicle): 110 ± 5.64%
CN(C)C(=O)CCc1nc(-c2ccccc2)c(-c2ccccc2)o1  apoptotic cells (COS-7; 50 µM, 24 h, 0.1% DMSO, unit not given; baseline: vehicle control): 0.8 ± 0.21
O=C(/C=C/C=C/C=C/C1CCCCC1)NC1=C[C@@](O)(/C=C/C=C/C=C/C(=O)NC2=C(O)CCC2=O)[C@@H]2O[C@@H]2C1=O  GI50 (SJSA-1; cell growth, CellTiter-Glo; 78 h): 14.4 µM
COc1ccc(NC(=S)N/N=C/c2cccc3cc4ccccc4nc23)cc1  S phase cells (HeLa; PI flow cytometry; IC25, 48 h, with: N-acetylcysteine): 27.1 ± 1.4%
O=C(O)CC[C@H](NC(=O)N[C@@H](CCCCNC(=O)[C@H](Cc1ccc2ccccc2c1)NC(=O)CCCCCNC(=O)CN1CCN(CC(=O)O)CCN(CC(=O)O)CCN(CC(=O)O)CC1)C(=O)O)C(=O)O [gallium-68 labelled]  tissue uptake (gamma counting; mouse, 22Rv1 xenograft, kidney; intravenous, 3.7 MBq, 2 h): 26.6 ± 2.47 %ID/g
Nc1cc(F)ccc1NC(=O)/C=C/c1cnn(C/C=C/c2ccccc2)c1  viability (OCI-Ly1; 0.5 µM, 120 h): 148%
CC(C)C[C@H](NC(=O)C[C@H](O)[C@H](CC(C)C)NC(=O)[C@H](Cc1c[nH]cn1)NC(=O)CNC(=O)[C@@H](NC(=O)[C@H](C)NC(=O)[C@H](Cc1c[nH]c2ccccc12)NC(=O)[C@H](CCC(N)=O)NC(=O)[C@@H](Cc1ccccc1)NC(=O)COCCOCCNC(=O)CCC(C(=O)O)N1CCN(CC(=O)O)CCN(CC(=O)O)CC1)C(C)C)C(N)=O (some centres unmarked) [lutetium-177 labelled]  tissue uptake (female BALB/c nu/nu mice, kidneys; intravenous, 50 pmol, 1 h): 5.4 ± 0.3 %ID/g
CC(=O)Nc1cccc(-n2c(=O)n(C3CC3)c(=O)c3c(Nc4ccc(I)cc4F)n(C)c(=O)c(C)c32)c1  fractional effect (COLO 205 (BRAF V600E); 100.00 nM; baseline: DMSO): 92%
O=C(O)C(Cc1c[nH]c2ccccc12)N1C(=O)c2ccccc2C1=O (centres unmarked)  viability (OCI-Ly1; 1 µM, 120 h): 154%
COc1ccc(-n2nc(C(C)=O)s/c2=N\N=C(/C)c2ccc(NC(=O)c3ccc(Cl)cc3)cc2)cc1  toxicity (HepG2; 2.5 µM): 94.1%
COc1cnc2cccc(N3CCc4c(cc(Cn5ccnc5C)cc4-c4cn(C)nc4C(F)(F)F)C3=O)c2c1  EC50 (HSC-4; cell growth, inhibitor; 120 h): > 30 µM
COCCOCc1ccc(-c2cc3onc(-c4ccccc4)c3c(=O)n2C)cc1  apoptotic cells (COS-7; 10 µM, 24 h, 0.1% DMSO, unit not given; baseline: vehicle control): 1.03 ± 0.05
Cc1cc(NS(=O)(=O)c2ccc(NC(=O)/C(C#N)=C/c3ccc(N4CCCCC4)cc3)cc2)no1  cells in G0/G1 phase (HCT-116; flow cytometry; IC50, 48 h): 71.7%
C=CC(=O)N1[C@@H](c2ccc3c(c2)OCO3)c2[nH]c3ccccc3c2C[C@H]1C(=O)NC  neuron degeneration (rat DRG neurons; 0.3704 µM, 48 h, with: vincristine 40 nM): 73.3% and 82.4%
COc1cc2ncnc(Nc3ccc(Oc4ccccc4)cc3C)c2cc1OC  viability (LoVo (KRAS G13D); resazurin; 0.3 µM, 72 h, with: trametinib 0 nM): 99.5%
CNCc1ccc(-c2[nH]c3cc(F)cc4c3c2CCNC4=O)cc1  viability (OCI-Ly1; 0.1 µM, 120 h): 174%
CC(C)C[C@H](NC(=O)C[C@H](O)[C@H](CC(C)C)NC(=O)[C@H](Cc1c[nH]cn1)NC(=O)CNC(=O)[C@@H](NC(=O)[C@H](C)NC(=O)[C@H](Cc1c[nH]c2ccccc12)NC(=O)[C@H](CCC(N)=O)NC(=O)[C@@H](Cc1ccccc1)NC(=O)COCCOCCNC(=O)CCC(C(=O)O)N1CCN(CC(=O)O)CCN(CC(=O)O)CCN(CC(=O)O)CC1)C(C)C)C(N)=O (some centres unmarked) [lutetium-177 labelled]  tissue uptake (BALB/c nu/nu mice, female, lumbar lymph node metastases; intravenous, 50 pmol, 1 h): 24 ± 18 %ID/g
O=C(O)CCCc1ccccc1  viability (OCI-Ly1; 1 µM, 120 h): 154%
CCn1cc(-c2cc(Cn3ccoc3=N)cc3c2CCN([C@@H](C)c2cc(OC)ccn2)C3=O)c(C(F)(F)F)n1  EC50 (OVSAHO; cell growth, inhibitor; 120 h): 5.97 µM
Cc1cccc(-c2[nH]c(CNc3ccccc3F)nc2-c2ccc3ncnn3c2)n1  XTT absorbance (pomalidomide-resistant MM1.S cells; XTT; 2 µM; higher = more viable cells): 1.8 E-1 and 2.3 E-1 and 1.9 E-1
O=C(COc1cccc2c1C(=O)N(C1CCC(=O)NC1=O)C2=O)NCCOCCOCCNS(=O)(=O)Nc1cccc(-c2cn3cc(C(=O)NC4CCC4)ccc3n2)c1 (centres unmarked)  log2 fold change (MV4-11; TMT proteomics, refers to: PGLS protein; 10 µM, 4 h; baseline: DMSO): -0.079
CCc1cc2c(N3CCN(c4nncs4)CC3)ncnc2s1  viability (OCI-Ly1; 0.1 µM, 120 h): 103%
COc1cc(/C=C/C(=O)N2CCC=CC2=O)cc(OC)c1OC  mRNA level (MDA-MB-468; quantitative RT-PCR, refers to: PRDX6; 30 µM, 8 h; baseline: untreated cells): 93.7 ± 6%
C=CCNC1=C2C[C@@H](C)C[C@H](OC)[C@H](O)[C@@H](C)/C=C(\C)[C@H](OC(N)=O)[C@@H](OC)/C=C\C=C(/C)C(=O)NC(=CC1=O)C2=O  MyBP-C protein level (iPSC-derived cardiomyocytes; initial hit retest; concentration not given, 24 h, plate-normalised): 30%
C#Cc1cccc(Nc2ncnc3cc(OC)c(OCCCCCCC(=O)NO)cc23)c1  viability (OCI-Ly1; 0.5 µM, 120 h): 9.09%

For quick reference, copied from above:
COc1cnc2cccc(N3CCc4c(cc(Cn5ccnc5C)cc4-c4cn(C)nc4C(F)(F)F)C3=O)c2c1  EC50 (HSC-4; cell growth, inhibitor; 120 h): > 30 µM
Cc1cc(Nc2ccc(NC(=O)c3ccc(Nc4ccnc5ccccc45)cc3)cc2)nc(N)n1  viability (OCI-Ly1; 0.1 µM, 120 h): 88.5%
Cn1cc(-c2ccc(-c3cncc(Cl)c3N3CCC4(CCNC4=O)CC3)cc2)cn1  log2 fold change (COLO 205; gene expression, microarray, refers to: LY9 mRNA; concentration not given, 2 h; baseline: untreated cells): -2.02
